Measured values of several laboratories.
Protocols differ between the studies behind these lines. Numbers after ± are the reported error.
MET: Hepatocyte growth factor receptor (MET, Homo sapiens, UniProt P08581)
MET Y1235D: Hepatocyte growth factor receptor (MET, Homo sapiens, UniProt P08581, Y1235D)
UCHL1: Ubiquitin carboxyl-terminal hydrolase isozyme L1 (UCHL1, Homo sapiens, UniProt P09936)
UniProt P09936, sequence (whole entry, looked up): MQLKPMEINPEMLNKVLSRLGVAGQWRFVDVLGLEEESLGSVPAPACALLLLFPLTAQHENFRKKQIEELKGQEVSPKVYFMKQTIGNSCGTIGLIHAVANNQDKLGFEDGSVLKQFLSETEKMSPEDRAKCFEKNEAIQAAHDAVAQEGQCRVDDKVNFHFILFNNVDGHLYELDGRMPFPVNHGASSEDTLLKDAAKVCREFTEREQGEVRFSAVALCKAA

Structure (SMILES) | target | assay | setting | scale | measurement | result
CC#CC(=O)N1CCC[C@H]1c1nc(-c2ccc(C(=O)Nc3ccccn3)cc2)c2c(N)nccn12 | MET | kinase activity, inhibitor, HotSpot radiometric | 100 nM, added: ATP 10 µM |  | remaining activity | 99 ± 6.7%
COc1cc(N2CCN(C)CC2)ccc1Nc1nc(N)n(C(=O)NCc2c(Cl)cccc2Cl)n1 | MET Y1235D | enzyme activity | 10 µM | reference: control | remaining activity | 1.2%
C1=C/COCc2cc(ccc2OCCN2CCCC2)Nc2nccc(n2)-c2cccc(c2)COC/1 | MET (Homo sapiens, UniProt P08581, M1250T) |  | concentration not given | reference: untreated control | remaining activity | 97%
Cc1[nH]c(/C=C2\C(=O)Nc3ccc(F)cc32)c(C)c1C(=O)N[C@H]1CCN(C(=O)N(C)C)C1 | MET | kinase activity, inhibitor | 0.1 µM | reference: no-compound control | remaining activity | 108%
Cc1cc(Nc2cc(N3CCN(C)CC3)nc(Sc3ccc(NC(=O)C4CC4)cc3)n2)[nH]n1 | MET | kinase activity, KinaseProfiler | 0.03 µM, species human | reference: control | remaining activity | 104%
COc1cc(N2CCN(C)CC2)ccc1Nc1nc(N)n(C(=S)NCc2c(Cl)cccc2Cl)n1 | MET | enzyme activity | 10 µM | reference: control | remaining activity | 2.9%
O=C(NC1CCC1)c1ccc2nc(-c3cccc(NS(=O)(=O)NCCN4CCCCC4)c3)cn2c1 | MET Y1235D | enzyme activity | 10 µM |  | remaining activity | 100%
COc1cc(F)ccc1-c1ncnc(Nc2cccc(C[S@](C)(=N)=O)c2)n1 | MET | kinase activity | 10 µM, added: 10 µM ATP |  | remaining activity | 91%
COc1cc(-c2cncc3c2CN(C)Cc2cc(N4CCNCC4)ccc2-3)cc(OC)c1OC | MET (Homo sapiens, UniProt P08581, D1228N) | kinase activity | 1 µM, added: ATP 10 µM | reference: DMSO control | remaining activity | 105%
Cc1ccc(-c2csc(NC(=O)CCl)n2)cc1C | UCHL1 | covalent, intact protein LC-MS | 12.5 µM |  | labelling | 6.31%
c1cnc2ccc(Nc3nc(NC4CC4)c4nc[nH]c4n3)cc2c1 | MET | kinase activity, inhibitor, SelectScreen kinase profiling | 1 µM | reference: control | remaining activity | 98%
COc1ccc(F)cc1C(=O)NCc1ccc(-c2nn([C@@H](C)C(F)(F)F)c(N)c2C(N)=O)cc1 | MET | kinase activity, inhibitor, HotSpot radiometric | 100 nM, added: ATP 10 µM |  | remaining activity | 100 ± 1.9%
COc1cc(N2CCN(C)CC2)ccc1Nc1nc(N)n(C(=O)NCc2ccccc2S(=O)(=O)C(C)C)n1 | MET Y1235D | enzyme activity | 10 µM | reference: control | remaining activity | 18%
CC(NC(=O)C(C#N)=Cc1cc(F)ccc1F)c1ccccc1 (stereo not drawn) | UCHL1 | covalent, intact protein LC-MS | 12.5 µM |  | labelling | 27.6%
CCCOc1ccc(OC)c(F)c1C(=O)c1ccc(C(=O)N[C@@H]2CNC[C@H]2NC(=O)c2ccc3[nH]ncc3c2)cc1 | MET | enzyme activity | 10 µM |  | remaining activity | 53%

A few entries again:
Structure (SMILES) | target | assay | setting | scale | measurement | result
COc1cc(F)ccc1-c1ncnc(Nc2cccc(C[S@](C)(=N)=O)c2)n1 | MET | kinase activity | 10 µM, added: 10 µM ATP |  | remaining activity | 91%
